Assay results from different studies.
Lines come from different studies, so protocols differ. Converted amounts (≈) assume the structure as drawn.
Organism: Bacillus subtilis

Structure (SMILES) | assay | test system | conditions | MIC [µg/mL]
CCCCCCCCCCCC[S+]([O-])CC1OC(OC2C(N)CC(N)C(OC3OC(CN)C(O)CC3N)C2O)C(O)C(N)C1O (mixture of isomers) |  | 168 |  | 4.7
CC[C@H](C)[C@H](N)C1=N[C@H](C(=O)N[C@@H](CC(C)C)C(=O)N[C@H](CCC(=O)O)C(=O)N[C@H](C(=O)N[C@H]2CCCCNC(=O)[C@H](CC(N)=O)NC(=O)[C@@H](CC(=O)O)NC(=O)[C@H](Cc3c[nH]cn3)NC(=O)[C@@H](Cc3ccccc3)NC(=O)[C@H]([C@@H](C)CC)NC(=O)[C@@H](CCCN)NC2=O)[C@@H](C)CC)CS1 |  | 168 | 18 h, 37 °C, added: ZnSO4 0.3 mM | 32 (≈ 22.5 µM)
O=C(O)c1ccc(-n2cc(/C=N/Nc3cccc(Cl)c3F)c(-c3ccc4ccccc4c3)n2)cc1 | microbial growth | ATCC6623 |  | 3.12 (≈ 6.44 µM)
C[C@@H]1C(=O)O[C@@H](C)/C=C/C=C\[C@@H](C)[C@@H]2C=C[C@@H]3C[C@]4(C)O[C@@H]4[C@@H](C)[C@H]3[C@@H]2C(=O)C(Cl)(Cl)C1=O | microbial growth, broth dilution |  |  | 0.0125 (≈ 0.0252 µM)
CN(C)c1ccc2c(CC(=O)NCCCn3cc(CCCCC(=O)Oc4c(Cl)cc(Cl)cc4-c4[nH]c(Cl)c(Cl)c4Cl)nn3)cc(=O)oc2c1 | microbial growth, broth dilution | 168 | 20 h | 0.25 (≈ 0.325 µM)
C/C(=N\Nc1nc(-c2ccccc2)cs1)c1ccc2c(c1)sc1nc(=O)c(C#N)cn12 | microbial growth, broth dilution |  |  | < 68
CCN(CC)CCn1nc(C23CC4CC(CC(C4)C2)C3)n(C)c1=S | two-fold dilution | IFO 3007 | 24 h, 36 °C | 16 (≈ 45.9 µM)
CC1C=CC=CC(C)C2C=CC3CC(C)(O)C(O)C(C)C3C2C(=O)C(Cl)(Cl)C(=O)C(C)C(=O)O1 (stereo not shown) | microbial growth, broth dilution |  |  | > 6.4
S=c1n(CN2CCN(Cc3ccccc3)CC2)nc(C23CC4CC(CC(C4)C2)C3)n1-c1ccccc1 | two-fold dilution | IFO 3007 | 24 h, 36 °C | 8 (≈ 16 µM)
COc1ccccc1C(=O)c1c(-n2c(C(=O)c3ccccc3OC)cc(Cl)c2Cl)c(Cl)c(Cl)n1C | microbial growth, broth dilution | 168 | 20 h | > 64
CC1C=CC=CC(C)C2C=CC3CC(C)(O)C(O[N+](=O)[O-])C(C)C3C2C(=O)C(Cl)(Cl)C(=O)C(C)C(=O)O1 (stereo not shown) | microbial growth, broth dilution |  |  | 0.025 (≈ 0.0448 µM)
C/C(=N\Nc1nc(C)cs1)c1ccc2c(c1)sc1nc(=O)c(C#N)cn12 | microbial growth, broth dilution |  |  | < 61
CC1C=CC=CC(C)C2C=CC3CC(C)(O)C(F)C(C)C3C2C(=O)C(Cl)(Cl)C(=O)C(C)C(=O)O1 (stereo not shown) | microbial growth, broth dilution |  |  | 0.2 (≈ 0.388 µM)
NC(=O)Nc1nc2cc(Br)ccc2[nH]c1=O | broth microdilution | 3610 | 20 h, 37 °C | > 128
CN(C)c1ccc2c(CC(=O)NCCCn3cc(CCCCC(=O)Oc4c(Br)cc(Br)cc4-c4[nH]c(Br)c(Br)c4Br)nn3)cc(=O)oc2c1 | microbial growth, broth dilution | 168 | 20 h | 0.25 (≈ 0.252 µM)
CCCCCCCCCCCCCCCc1cc(O)cc(O)c1 | microbial growth, broth dilution | 168 |  | 64 (≈ 200 µM)
